Results of several laboratories.
Lines come from different studies, so protocols differ. Numbers after ± are the reported error.

Structure (SMILES) | cell line | assay | conditions | scale | measurement | value
COc1cc(C(=O)NCCOCCOCCOCCNC(=O)c2ccc([18F])nc2)ccc1NC(=O)C1NC(CC(C)(C)C)C(C#N)(c2ccc(Cl)cc2F)C1c1cccc(Cl)c1F (centres unmarked) | HepG2 |  | 1 h |  | maximal uptake | 559 ± 23 %/mg protein
COC(=O)C1=CO[C@@H](OC(C)=O)[C@@H]2C(Cn3cc(CCO[Si](c4ccccc4)(c4ccccc4)C(C)(C)C)nn3)=CC[C@H]12 | SK-N-SH | neuroprotection, MTT | 0.3 µM, 24 h, added: 250 µM H2O2 |  | viability | 47.8 ± 0.3%
Cc1cc(C)c(N2CCN(c3c(C)cc(C)cc3C)C2=[Se])c(C)c1.[Cl][Ag] | A2780 | cell growth or viability | 72 h, 3D culture |  | IC50 | 21.3 µM
Clc1ccc2nc3c(c(Nc4ccc5ccccc5n4)c2c1)CCCC3 | SH-SY5Y | MTT | 50 µM, 1 h pretreatment, 10% FBS, added: H2O2 |  | viability | 48.2 ± 1.57%
CCC(C)C(=O)OC1C2C3(C)CCC(OC4CC(OC)C(OC5OC(C)C(O)C(OC)C5O)C(C)O4)CC3CCC23OC32CCC(C(C)=O)C2(C)C1OC(C)=O (centres unmarked) | MDA435/LCC6-MDR1 | cell growth, MDR reversal, SRB | 10 µM, added: doxorubicin | baseline: doxorubicin alone over combination | fold reversal of IC50 | 6
COC(=O)C1=CO[C@@H](OC(C)=O)[C@@H]2C(Cn3cc(CN(C)Cc4ccccc4)nn3)=CC[C@H]12 | SK-N-SH | neuroprotection, MTT | 0.3 µM, 24 h, added: 250 µM H2O2 |  | viability | 52.9 ± 0.5%
[N]#[Os]([Cl])([Cl])[Cl].c1cnc2c(c1)ccc1cccnc12 | A2780 | immunoblot, refers to: p21 and BAX | concentration not given |  | protein level | increased
COC(=O)C1=CO[C@@H](OC(C)=O)[C@@H]2C(Cn3cc(CCCN4C(=O)c5ccccc5C4=O)nn3)=CC[C@H]12 | SK-N-SH | neuroprotection, MTT | 0.15 µM, 24 h, added: 250 µM H2O2 |  | viability | 52.9 ± 0.7%
COc1c(C)cc2c(c1OC)OCO2 | SK-OV-3 | cell growth or viability, MTT | 72 h |  | GI50 | > 250 µM
CSCC[C@H](NC(=O)[C@H](CC(C)C)NC(=O)[C@H](Cc1c[nH]cn1)NC(=O)CNC(=O)[C@@H](NC(=O)[C@H](C)NC(=O)[C@H](Cc1c[nH]c2ccccc12)NC(=O)[C@H](CCC(N)=O)NC(=O)CCCCCNC(=O)CCN(CCNC(=O)c1ccc(F)cc1)CCC(=O)NCCCC[C@@H]1NC(=O)[C@@H](Cc2ccc(O)cc2)NC(=O)[C@H](CC(=O)O)NC(=O)CNC(=O)[C@H](CCCNC(=N)N)NC1=O)C(C)C)C(N)=O [fluorine-18 labelled] | PC-3 |  | 120 min, 37 °C | baseline: added radioactivity | cellular uptake | 4.72 ± 0.36%
COC(=O)C1=CO[C@@H](OC(C)=O)[C@@H]2C(Cn3cc(-c4ccc(F)cc4)nn3)=CC[C@H]12 | SK-N-SH | neuroprotection, MTT | 0.3 µM, 24 h, added: 250 µM H2O2 |  | viability | 58.6 ± 0.9%
O=C(O)CCC(NP(=O)(O)OCCC[C@@H](NC(=O)CCC(NC(=O)CCCCCNC(=O)CCCCCNC(=O)c1ccc([18F])cc1)C(=O)O)C(=O)O)C(=O)O (some centres unmarked) | CWR22Rv1 |  | 2 h |  | cell uptake | 4.23 ± 0.64%
CC(C)CC(O)(CC(C)C)c1cn(C(=O)N2CCCC2)nn1 | mouse T-cells | SILAC proteomics, refers to: EFHD2 | 1 nM, 6 h, unit not given | baseline: DMSO | protein level | 0.99 ± 0.14
CCCCCCCCCCCCCC(=O)NCC(=O)N[C@@H](CCCNC(=N)N)C(=O)N[C@@H](Cc1c[nH]c2ccccc12)C(=O)N[C@@H](CCCCN)C(=O)N[C@H](C(=O)N[C@@H](Cc1ccccc1)C(=O)N[C@@H](CCCCN)C(=O)N[C@@H](CCCCN)C(=O)N[C@H](C(=O)N[C@@H](CCC(=O)O)C(=O)N[C@@H](CCCCN)C(=O)N[C@H](C(=O)NCC(=O)N[C@@H](CCC(N)=O)C(=O)N[C@@H](CC(N)=O)C(=O)N[C@H](C(=O)N[C@@H](CCCNC(=N)N)C(=O)N[C@@H](CC(=O)O)C(=O)NCC(=O)N[C@H](C(=O)N[C@H](C(=O)N[C@@H](CCCCN)C(=O)N[C@@H](C)C(=O)NCC(=O)N1CCC[C@H]1C(=O)N[C@@H](C)C(=O)N[C@H](C(=O)N[C@@H](C)C(=O)N[C@H](C(=O)N[C@H](C(=O)NCC(=O)N[C@@H](CCC(N)=O)C(=O)N[C@@H](C)C(=O)N[C@@H](C)C(=O)N[C@H](C(=O)N[C@H](C(N)=O)[C@@H](C)CC)[C@@H](C)O)C(C)C)C(C)C)C(C)C)C(C)C)[C@@H](C)CC)[C@@H](C)CC)C(C)C)[C@@H](C)CC)[C@@H](C)CC | Jurkat | western blot, refers to: caspase 3 | 3 or 6 µM, 16 h |  | cleaved over total caspase ratio | increased
